Measurements collected from several papers.
Compare with care: the assays were run in different laboratories. Values joined by “and” are separate records of one study, mostly repeats; a detail may differ. Numbers after ± are the reported error.

Structure (SMILES) | cell line | assay | test system | setting | how to read | endpoint | value
CCCCc1nc2cc(/C=C/C(=O)NO)ccc2n1CCN(CC)CC | BT-16 | cell viability, MTT |  | 10 µM, 72 h |  | inhibition | 87.7%
COc1cc2ncnc(Nc3ccc(Oc4ccccc4)c(C)c3C)c2cc1OC | MeWo (NF1 mutant) | resazurin |  | 3 µM, 72 h, added: trametinib | relative to: DMSO | viability | 84.8%
CC[C@H]1CN2CCc3cc(OC)c(OC)cc3[C@@H]2C[C@@H]1C[C@H]1NCCc2cc(OC)c(OC)cc21 | BT-16 | cell viability, MTT |  | 10 µM, 72 h |  | inhibition | 92.9%
CCCCN1C[C@H](O)[C@@H](O)[C@@H](O)[C@H]1CO | sample BA patient fibroblasts | Gb3 level lowering, LC-MS/MS, measured: Gb3 d18:1/20:0 |  | 216 h |  | IC50 | 26 µM
O=C(/C=C/C=C/C=C/C1CCCCC1)NC1=C[C@@](O)(/C=C/C=C/C=C/C(=O)NC2=C(O)CCC2=O)[C@@H]2O[C@@H]2C1=O | snu81 | cell growth, inhibitor, CellTiter-Glo luminescence |  | 78 h | relative to: day 0 cell count | GI50 | > 30000 nM
Cc1cccc(-c2[nH]c(CNc3ccccc3F)nc2-c2ccc3ncnn3c2)n1 | bone marrow CD138+ myeloma cells | XTT |  | 1 µM, mean of three patients |  | viability | 17%
C=CCn1c(=O)c2cnc(Nc3ccc(N4CCN(C)CC4)cc3)nc2n1-c1ccc2c(n1)[C@@](O)(CC)CC2 | MDA-MB-231 | flow cytometry, measured: pHH3+γH2Ax+ |  | concentration not given |  | G2/M cells in subpopulation | 19.7%
Cc1nn(-c2nc3ccc(Cl)c(Cl)c3[nH]2)c(O)c1C1OC(=O)c2ccccc21 (stereo not shown) | RAW-ISG | IFN luciferase reporter |  | 0.625 µM, added: HT-DNA |  | inhibition | -5.9% and -10.5% and -2.08% and -0.253% and 6.11% and -4.27%
Cl.O=C(Nc1ccccc1-c1cn2c(CN3CCNCC3)csc2n1)c1cnc2ccccc2n1 | BT-16 | cell viability, MTT |  | 10 µM, 72 h |  | inhibition | 95.2%
Nc1cccc2c1C(=O)N(C1CCC(=O)NC1=O)C2=O (stereo not shown) | MM1.S | XTT |  | 1 µM | relative to: untreated | viability | 25%
COc1cnc2cccc(N3CCc4c(cc(Cn5ccnc5C)cc4-c4cn(C)nc4C(F)(F)F)C3=O)c2c1 | MSTO-211H | cell growth, inhibitor |  | 120 h |  | EC50 | > 30 µM
CC(=O)O[C@H]1C(=O)[C@@]2(C)[C@H]([C@H](OC(=O)c3ccccc3)[C@]3(O)C[C@H](OC(=O)[C@H](O)[C@@H](NC(=O)c4ccccc4)c4ccccc4)C(C)=C1C3(C)C)[C@]1(OC(C)=O)CO[C@@H]1C[C@@H]2O | HL-60(TB) |  |  |  |  | TGI | 0.03 µM
O=C([O-])c1ccccc1O.[Na+] | mouse bone marrow macrophages |  |  | 3 mM, mean, added: RANKL and, tet-CR4-WHD | relative to: RANKL alone | osteoclastogenesis | 40.1%
O=c1[nH]cc(F)c(=O)[nH]1 | C32 | SRB |  |  | relative to: IC50 HaCaT over IC50 C32 | selectivity ratio | 0.08
CCN1CCN(Cc2ccc(Nc3ncc(F)c(-c4cc(F)c5nc(C)n(C(C)C)c5c4)n3)nc2)CC1.CS(=O)(=O)O | BT-16 | cell viability, MTT |  | 10 µM, 72 h |  | inhibition | 88.7%
Nc1ncnc2c1ncn2[C@@H]1O[C@H](CO)[C@@H](O)[C@H]1O | unstimulated human T cells |  |  | 31.6 µM, 72 h | higher = more viable cells | viability | 76.8 a.u. and 85 a.u. and 82.3 a.u.
C=CC1=C(C)c2cc3[n-]c(cc4nc(cc5[n-]c(cc1n2)c(C)c5C=C)C(C)=C4CCC(=O)O)c(CCC(=O)O)c3C.[Zn+2] | SH-SY5Y | RNA-seq, measured: FLNC mRNA |  | 5 µM, 5 h | relative to: untreated cells | fold change | 1.82
C=CC(=O)Nc1cc(Nc2nccc(Nc3cc(Cl)c(F)cc3C(C)(C)O)n2)c(OC)cc1N1CC[C@@H](N(C)C)C1 | NCI-H2073 ASV knock-in | cell proliferation, CellTiter-Glo |  | 72 h, geometric mean |  | IC50 | 0.0174 µM
CCOc1cc(-c2nncn2C)ccc1Nc1ncc2cc(C)nc(N3CC(C)(C)C3)c2n1 | CAL-51 | cell growth |  | 72 h |  | GI50 | 49 nM
CCn1cc(-c2cc(Cn3ccnc3)cc3c2CCN([C@H](c2cc(OC)ccn2)C2CC2)C3=O)c(C(F)(F)F)n1 | MSTO-211H | cell growth, inhibitor |  | 120 h |  | EC50 | > 30 µM
Cn1cc(-c2ccc(-c3cncc(Cl)c3N3CCC4(CCNC4=O)CC3)cc2)cn1 | COLO 205 | microarray, measured: FOSB |  | concentration not given, 6 h | relative to: untreated cells | fold change in expression | 2.13
CC/C(=N\NC(=O)NCc1cccc(O)c1)c1ccc(O)c(C)c1O | SK-OV-3 | Western blot | 3D culture in gellan gum | 20 µM, 1 h, unit not given | relative to: β-actin | YAP protein level | 0.87 ± 0.27
CC(C)NCC(O)c1ccc(O)c(O)c1 (stereo not shown) | mouse ventricular cardiomyocytes |  |  | dose not given, 0.015 s |  | sarcomere length | 1.8 µm

Structure (SMILES) | cell line | assay | test system | setting | how to read | endpoint | value
Cn1cc(Nc2nccc(-c3ccc4c(c3)CN(C3COC3)CC[C@H]4NC(=O)c3cn(C(C)(C)C)nn3)n2)cn1 | mouse splenic B cells | measured: eNOS signalling |  | 30 mg/kg, IgD-activated in vivo | relative to: vehicle, direction not given | pathway activation z-score | 4.03
COc1cc([C@@H]2c3cc4c(cc3[C@@H](O[C@@H]3O[C@@H]5CO[C@@H](C)O[C@H]5[C@H](O)[C@H]3O)[C@H]3COC(=O)[C@H]23)OCO4)cc(OC)c1O | HepG2 spheroids | flow cytometry |  | 1.7 µM, 24 h |  | G1 phase cells | 36.5 ± 17.6%
Cn1cc(-n2cnc3c(NCc4nc5cc(Cl)c(Cl)cc5[nH]4)nc(N4CCOCC4)nc32)cn1 | MDA-MB-231 | cell viability, CellCounting-Lite |  | 74.07 nM, 37 °C | higher = more viable cells | luminescence signal | 106000 a.u. and 113000 a.u. and 95500 a.u.
CCCS(=O)(=O)Nc1ccc(F)c(C(=O)c2c[nH]c3ncc(-c4ccc(Cl)cc4)cc23)c1F | SK-MEL-239 (BRAF V600E) | ERK phosphorylation, Western blot |  | 1 h |  | IC75 | 214 nM
COC(=O)N[C@H](C(=O)N[C@@H](Cc1ccccc1)[C@@H](O)CN(Cc1ccc(-c2ccccn2)cc1)NC(=O)[C@@H](NC(=O)OC)C(C)(C)C)C(C)(C)C | ΔE-expressing cells | ΔE mislocalization, high-content imaging |  |  |  | maximal efficacy | inactive
O=P1(C2CCCCC2)CCCCC1 | PC-3 | annexin V/PI flow cytometry |  | IC50, 72 h |  | necrotic cells | 0.35%
C=Cc1c2[n-]c(c1C)/C=c1\[n-]/c(c(C)c1C=C)=C\c1[n-]c(c(CCC(=O)O)c1C)/C=c1\[n-]c(c(C)c1CCC(=O)O)=C2.[Sn+4] | SH-SY5Y | RNA-seq, measured: AOPEP mRNA |  | 5 µM, 5 h | relative to: untreated cells | fold change | 2.04
O=c1[nH]nc(OCCCc2ccc(Cl)cc2)c(NCc2cccnc2)c1Br | HEK-293T | RNA-seq GSEA, measured: Hallmark apical surface |  | concentration not given | direction not given | normalized enrichment score | -0.844
Cc1cc(Nc2ncc(Cl)c(Nc3ccccc3S(=O)(=O)C(C)C)n2)c(OC(C)C)cc1C1CCNCC1 | CLB-BAR | phosphoproteomics LC-MS/MS, measured: EIF4B phosphorylation |  | 200 nM, 60 min | relative to: untreated | log2 fold change | -1.63
COc1ccc(F)cc1C(=O)NCc1ccc(-c2nn([C@@H](C)C(F)(F)F)c(N)c2C(N)=O)cc1 | Rec1 | measured: FGF-2 |  | 24 h |  | IC50 | > 0.1 µM
CC1(C)Oc2ccc(CC3=C(c4ccc(O)cc4)C(=O)OC3=O)cc2CC1O (stereo not shown) | RPTEC | qPCR |  | 10 µg/mL, 24 h, basal, no LPS | relative to: untreated | IL-6 mRNA level | no effect
CC(=O)Nc1cc(Oc2ccc3c(c2)CCN3C(=O)Nc2ccc(CN3CCN(C)CC3)c(C(F)(F)F)c2)ncn1 | MHHCALL4 cells | Western blot, measured: JAK2, STAT5, STAT3 |  | concentration not given |  | phosphorylation | inhibited
CCN(CC)Cc1ccc2cc(COC(=O)Nc3ccc(C(=O)NO)cc3)ccc2c1 | BT-16 | cell viability, MTT |  | 10 µM, 72 h |  | inhibition | 93.6%
O=C(O)COCC(=O)O | iPSC-derived hepatocytes B2 | cell viability |  | 24 h, differentiation day 23 |  | IC50 | 9410 µM
C=C1CN(S(=O)(=O)c2ccc(C)cc2)CCCN(Cc2ccccc2)CCCN(S(=O)(=O)c2ccc(C)cc2)C1 | HEK293 expressing HA-FLuc | western blot | total extract | concentration not given, unit not given | relative to: mock | HA-FLuc protein level | 0.325
CC(=O)[C@]1(O)Cc2c(O)c3c(c(O)c2[C@@H](O[C@H]2C[C@H](N)[C@H](O)[C@H](C)O2)C1)C(=O)c1ccccc1C3=O | BT-16 | cell viability, MTT |  | 10 µM, 72 h |  | inhibition | 89.3%
CCc1cnc(N2CCC(c3nc(COc4ccc(-n5cnnn5)cc4)cs3)CC2)nc1 | HEK293T | RNA-seq, measured: TRIB3 mRNA |  | 10 µM, 6 h | relative to: vehicle | log2 fold change | 0.402
COc1ccc(/C=C\c2cc(OC)c(OC)c(OC)c2)cc1OP(=O)(O)O | BT-16 | cell viability, MTT |  | 10 µM, 72 h |  | inhibition | 90.4%
CSc1cc(Oc2ccnc3[nH]c(=O)cnc23)ccc1NC(=O)Nc1cc(C(C)(C)C)nn1-c1ccccc1 | patient-derived cell line clone B | RPPA, measured: GSK-3β pSer9 | human | 1 µM, 4 h | relative to: DMSO | phospho/total ratio | 0.62
CC(=O)c1cc2c(o1)C(=O)c1ccccc1C2=O | BT-16 | cell viability, MTT |  | 10 µM, 72 h |  | inhibition | 92.4%
CCN(CCO)CCCC(C)Nc1ccnc2cc(Cl)ccc12 (stereo not shown) | human PBMC | qRT-PCR, measured: IFI27 mRNA |  | 1000 nM, added: ssRNA |  | inhibition | 31 ± 21%
CCn1cc(-c2cc(Cn3ccoc3=N)cc3c2CCN([C@@H](C)c2cc(OC)ccn2)C3=O)c(C(F)(F)F)n1 | HCC1588 | cell growth, inhibitor |  | 120 h |  | EC50 | > 30 µM
COc1cc(/C=C/C(=O)N2CCC=CC2=O)cc(OC)c1OC | MDA-MB-468 | qRT-PCR, measured: NFE2L1 |  | 30 µM, 6 h | relative to: time zero | mRNA level | 61.7 ± 3.7%
